Experimental data pooled from the literature.
Every numbered part comes from another study and shows a few of its results, in no order. Substitutions count along the parent as printed.

Set 1
Substitution: T39V
Target: ABI1, truncated, D143A, DHFR fusion (Arabidopsis thaliana)
Method: DHFR PCA, deep sequencing
Sample: yeast
Setting: methotrexate growth selection, single substitutions
Relative to: wild-type fitted maximum
Direction: higher = stronger binding
Starting sequence: PYL1, truncated, DHFR fusion (Arabidopsis thaliana); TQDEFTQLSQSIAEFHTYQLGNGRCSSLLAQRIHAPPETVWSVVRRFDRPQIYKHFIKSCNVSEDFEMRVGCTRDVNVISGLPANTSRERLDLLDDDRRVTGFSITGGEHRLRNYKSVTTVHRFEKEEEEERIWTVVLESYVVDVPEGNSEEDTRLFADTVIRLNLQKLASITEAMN; partner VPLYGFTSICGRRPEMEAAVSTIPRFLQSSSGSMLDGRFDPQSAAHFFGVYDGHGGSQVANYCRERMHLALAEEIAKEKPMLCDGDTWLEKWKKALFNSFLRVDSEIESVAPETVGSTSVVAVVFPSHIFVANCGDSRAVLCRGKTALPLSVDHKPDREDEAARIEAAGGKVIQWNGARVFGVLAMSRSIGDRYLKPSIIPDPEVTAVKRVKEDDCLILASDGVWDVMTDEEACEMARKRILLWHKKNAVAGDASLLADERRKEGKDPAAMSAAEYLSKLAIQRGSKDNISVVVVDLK
| with | relative binding score |
| --- | --- |
| (+)-ABA 58 µM | 91% |
| (+)-ABA 0 µM | 52% |
| (+)-ABA 0.11 µM | 56.1% |
| (+)-ABA 17 µM | 88.8% |
| (+)-ABA 0.0091 µM | 53.7% |
| (+)-ABA 2500 µM | 95.2% |

Set 2
Target: RING finger protein unkempt homolog, zinc fingers 1-6, GST-SBP tag (UNK, Homo sapiens, UniProt Q9C0B0, residues 30-357)
UniProt Q9C0B0, sequence (30-357, looked up): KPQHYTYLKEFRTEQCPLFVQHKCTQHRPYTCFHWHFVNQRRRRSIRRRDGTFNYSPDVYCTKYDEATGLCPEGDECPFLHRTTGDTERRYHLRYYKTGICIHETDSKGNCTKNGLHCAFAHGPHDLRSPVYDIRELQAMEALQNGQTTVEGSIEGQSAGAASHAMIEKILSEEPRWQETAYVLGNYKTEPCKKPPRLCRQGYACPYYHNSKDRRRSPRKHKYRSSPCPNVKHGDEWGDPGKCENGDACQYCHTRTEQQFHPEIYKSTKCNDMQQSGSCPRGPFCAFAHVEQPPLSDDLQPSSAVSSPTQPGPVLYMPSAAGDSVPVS
Method: RNA Bind-n-Seq
Form: RNA
Sample: in vitro
Tested at: not given
Setting: RNA with constant flanks, human-mouse chimeric sites, ends assumed
Relative to: input RNA pool
Direction: higher = stronger binding
| Strand | bound/input enrichment |
| --- | --- |
| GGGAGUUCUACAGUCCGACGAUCACAGUUAUAUUGUUGAGUUUCAUUUUCAUAUAUUCUUAUGGUGUCUGCUUGCCUGUGACUUCUGGUAAAAUAAAAUAUUAAAAUUACAAUAUUUUAGCAUGGUAUUUAACAUUUUCUAAACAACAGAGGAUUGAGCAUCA | 1.23 ratio |
| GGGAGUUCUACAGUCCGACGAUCCUUUUUAAGAAGAUAUGUGAUGGGAUCUUUUAUACCCCUCAGUACUUAAAUCCUUCUGUGAUUAGCCUUUUGAAACAUAUGCUGCAGGUGGAUCCCAUGAAGAGGGCCGCAAUAAAAGAUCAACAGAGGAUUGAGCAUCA | 0.464 ratio |
| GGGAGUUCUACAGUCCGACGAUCUCUGGUCACACUCGUGUGUAUGGUGUUUGCUUUGUGGACACUUCACUGGGCAAGUUUUUCAUCGGCCAGUUUUCGGAUGACCGCCACUGUUCCAGAUUUAGGACUCUAGUGGCUCACUAUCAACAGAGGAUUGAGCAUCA | 0.178 ratio |
| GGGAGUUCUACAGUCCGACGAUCGAUCUCGGGCCCUCCCCAGGGGCCUCCUUUCGUAUAGUCACUGCUUCUGCAUCAGAUACUUUCAGCUGCAACUCCCUACUGGGUGGGGCACCCAUUUGAGGCAGGGUGUUUUGGUACCCUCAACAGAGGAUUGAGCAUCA | 0.352 ratio |
| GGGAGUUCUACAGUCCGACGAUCUUCCCAACCUCCCGCCUCACCCCACCCCCGCUUUUUGGAAAGUUUUUGGCGUUUCUUUUUUUUAGAAAUACAAAGUGAUUACAGUUUCCCCCGCAAGGGUCUAUCGAAGGGCUUGACGGACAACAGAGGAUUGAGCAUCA | 0.76 ratio |
| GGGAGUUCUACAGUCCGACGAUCCAGACUGUGUCAUACUUUUUAGACAUUCACAUCAGACUUACAGAGCACCUGGCCACAUUCUAGGUUUGUGUUAUUUCUCAGCUAUGGAUAUGAUCAAAUGAGAACACUGGCAGCCAGAUGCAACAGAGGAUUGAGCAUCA | 0.981 ratio |
| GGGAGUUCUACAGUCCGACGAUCAAAGCCCAAGUAUUUUGAAAAAACUCGAACAGAUUUGACAAGGGUAGCCAGCUUGGAGUCUAGCAAUUUGCCAAUGUGUUUACCAAUCUGGGGGCUUGUUUUUCUUUCCCUUCCUUAAAUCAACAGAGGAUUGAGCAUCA | 0.477 ratio |
| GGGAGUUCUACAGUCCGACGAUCACUCUUGACUCUUUCCAUCCUCUUCCUUUCCCUCUUGAUCUUCAAGGCCAUGAAUCCCAAAAUAACAAUCUAUCUUACUAGCACCCAAACAGAGGUGGAAUAAAUCCACCCCAGUGUCUCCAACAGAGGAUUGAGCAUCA | 1.16 ratio |

Set 3
Target: Centromere-binding protein 1, full length, N-terminal tag (CBF1, Saccharomyces cerevisiae, UniProt P17106, residues 1-351)
UniProt P17106, sequence (whole entry, looked up): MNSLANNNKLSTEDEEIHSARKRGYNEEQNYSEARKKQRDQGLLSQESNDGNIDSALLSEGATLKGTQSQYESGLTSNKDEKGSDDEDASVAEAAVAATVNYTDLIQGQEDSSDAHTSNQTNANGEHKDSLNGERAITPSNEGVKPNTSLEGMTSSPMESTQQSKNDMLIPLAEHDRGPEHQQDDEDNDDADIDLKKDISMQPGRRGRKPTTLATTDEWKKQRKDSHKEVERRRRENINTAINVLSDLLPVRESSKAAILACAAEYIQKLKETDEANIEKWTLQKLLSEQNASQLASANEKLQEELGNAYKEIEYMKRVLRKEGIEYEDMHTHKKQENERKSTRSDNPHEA
Method: protein-binding microarray
Form: double-stranded DNA, one strand shown
Sample: in vitro
Tested at: 0.8 µM
Setting: whole 60-bp probe, no competitor
Direction: higher = stronger binding
| Strand | fluorescence intensity [a.u.] |
| --- | --- |
| GAAAAGGTATCTCTGATGCTGACATTGCTAAGTTAGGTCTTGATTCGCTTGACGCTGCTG | 533 |
| CTATTTGACACATACGTGACAACTACTTTTGATTTCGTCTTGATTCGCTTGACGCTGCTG | 626 |
| CTAAAATAGCATTTGCGTGCTTAAGTGAAATTTTTCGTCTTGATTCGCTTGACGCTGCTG | 502 |
| CTATGAGTTCTACGTGGTGCAAAAATATTTTTTTTCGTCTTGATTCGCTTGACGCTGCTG | 547 |
| CTACATTCATATTTACATGTGCGTTACTACTTATTCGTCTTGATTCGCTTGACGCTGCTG | 624 |
| CTATCGTTTGGAAGACACGTTAGGTTTAGTATCTTCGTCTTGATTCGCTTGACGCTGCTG | 556 |
| GAAATTTTAGCAACCCACACCATATACCTTTGGTAGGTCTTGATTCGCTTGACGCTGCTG | 498 |
| TGTACGAAGCTATCCCACCAGATTATAGTAGTTAGGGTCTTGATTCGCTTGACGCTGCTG | 522 |

Single results of other studies
Starting sequence: viral docking peptide; KGVKRKLFAEDSS
| Substitution | target | assay | system | conditions | how to read | endpoint | result |
| --- | --- | --- | --- | --- | --- | --- | --- |
| A9D | CCNE1, cyclin fold, Cln2 fusion (human) | yeast growth competition, sequencing | yeast | strong parent motif | relative to: not given, higher = stronger binding | normalised enrichment score | 6.67 |

Excerpt of the above (set 3):
| Strand | fluorescence intensity [a.u.] |
| --- | --- |
| CTATGAGTTCTACGTGGTGCAAAAATATTTTTTTTCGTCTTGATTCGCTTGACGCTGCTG | 547 |
| CTATTTGACACATACGTGACAACTACTTTTGATTTCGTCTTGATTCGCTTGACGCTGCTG | 626 |
| GAAATTTTAGCAACCCACACCATATACCTTTGGTAGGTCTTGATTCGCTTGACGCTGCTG | 498 |
